Published values from different studies.
Compare with care: the assays were run in different laboratories. Values joined by “and” are separate records of one study, mostly repeats; a detail may differ.
Target: Serine/threonine-protein kinase BRSK1 (BRSK1, Homo sapiens, UniProt Q8TDC3)
One construct used (Q8TDC3 1-778): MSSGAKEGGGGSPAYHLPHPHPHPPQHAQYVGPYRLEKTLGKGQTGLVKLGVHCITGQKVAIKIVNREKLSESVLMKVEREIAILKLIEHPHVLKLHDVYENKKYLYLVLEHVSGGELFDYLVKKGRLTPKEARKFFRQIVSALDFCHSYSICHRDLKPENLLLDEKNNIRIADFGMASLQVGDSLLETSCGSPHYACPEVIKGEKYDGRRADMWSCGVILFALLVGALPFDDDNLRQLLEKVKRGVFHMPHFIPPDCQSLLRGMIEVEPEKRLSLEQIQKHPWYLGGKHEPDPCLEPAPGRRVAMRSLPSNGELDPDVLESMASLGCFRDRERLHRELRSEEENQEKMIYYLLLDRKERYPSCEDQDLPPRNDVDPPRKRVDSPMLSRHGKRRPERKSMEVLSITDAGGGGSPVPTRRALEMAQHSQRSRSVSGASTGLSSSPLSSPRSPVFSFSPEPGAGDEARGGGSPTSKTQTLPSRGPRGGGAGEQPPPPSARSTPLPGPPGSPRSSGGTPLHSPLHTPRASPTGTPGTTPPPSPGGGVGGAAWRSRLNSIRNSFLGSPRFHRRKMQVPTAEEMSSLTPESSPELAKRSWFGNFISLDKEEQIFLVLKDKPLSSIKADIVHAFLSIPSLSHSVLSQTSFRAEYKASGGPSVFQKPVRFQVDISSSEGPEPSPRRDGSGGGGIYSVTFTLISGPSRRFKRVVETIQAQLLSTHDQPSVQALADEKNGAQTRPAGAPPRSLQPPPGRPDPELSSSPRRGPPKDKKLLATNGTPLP

Structure (SMILES) | test | setting | how to read | quantity | result
CN1CCN(Cc2ccc(-c3ccc(CO[C@H]4CCC[C@@H]4NC(=O)c4cc(-c5cnn(C)c5)cnc4N)cc3)cc2)CC1 | enzyme activity, inhibitor | 0.1 µM | – | inhibition | -8%
Cc1cnc2nc1Nc1cccc(c1)COC/C=C/COCc1cc(ccc1OCCN1CCOCC1)N2 | binding | 0.1 µM | – | remaining binding | 100%
Cc1nc2c(F)cc(-c3nc(Nc4ccc(CNC(=O)CCCCCCC(=O)NO)cc4)ncc3F)cc2n1C(C)C | enzyme activity, inhibitor | 1 µM | – | inhibition | 77%
COc1cc(Nc2nccc(-c3cnn4nc(OC)ccc34)n2)cc(C(F)(F)F)c1 | binding, competition with immobilised ligand | 1 µM | – | remaining binding | 100%
C=CC(=O)Nc1cccc(-c2cnc3[nH]cc(C(=O)NC(C)(C)C)c3n2)c1 | kinase activity | 0.1 µM | – | inhibition | 13% and 12%
CCn1cc(C(=O)O)c(=O)c2c(N)c(F)c(NC3CCCCC3)cc21 | kinase activity | 0.1 µM, added: ATP at Km | – | inhibition | 8.3%
C=CC(=O)N1CCc2ccc(-n3c(=O)ccc4cnc5ccc(-c6cnn(C)c6)cc5c43)cc21 | KINOMEscan | 1 µM | reference: DMSO control | remaining binding | 84%
COCC12C(=O)NC3C4(C(OC)CC1O)C1CC5(O)C(OC)C(O)C(OC(C)=O)(C1C5OC(=O)c1ccccc1)C3(O)C(OC)C24 (stereo not drawn) | kinase activity, inhibitor, ProQinase kinase profiling | 25 µM | reference: control | remaining activity | 102% and 108%
C=CC(=O)N1CCCC(n2c(=O)c3ncccc3n(Cc3ccc(Oc4ccccc4)cc3)c2=O)C1 (stereo not drawn) | cell-free assay, competition with immobilised ligand | 1 µM | – | remaining binding | 100%
Cc1cccc(O[C@H]2CCC[C@@H](C(C)CNCc3ccncc3)C2)c1 (relative stereo) | enzyme activity, inhibitor | 10 µM | – | inhibition | 2%
Cc1ccc(-c2c(/C=C(\C#N)C(=O)NC(C)C)n(CCCO)c3ncnc(N)c23)cc1 | cell-free assay, competition with immobilised ligand | 1 µM | – | remaining binding | 67%
CNC1C[S+]2CC[S+]3CC[S+](C1)[Ru-4]321([N]=C=S)[n]2c3ccc(OC)cc3c3c4c(c5cc(F)c[n+]1c5c32)C(=O)NC4=O (stereo not drawn) | KinomeScan | 0.1 µM | reference: untreated | remaining binding | 100%
CNC(=O)C[C@H](Cc1ccc(C#N)cc1)NC(=O)c1cc(-c2ccc(CN[C@H](C)c3ccc(C)cc3)o2)ccc1Cl | enzyme activity, inhibitor | 1 µM | – | activity vs control | 100%
COc1ccc(NC(=O)Nc2ccc3c(c2)C(=O)N(C(C)CO)CC(C)C(CN(C)Cc2ccc4c(c2)OCO4)O3)cc1 (stereo not drawn) | kinase activity, KinaseProfiler | 0.03 µM, species human | reference: control | remaining activity | 98%
NC(=O)C[C@H]1CCc2sc3ncnc(O[C@H]4CC[C@H](N5CCOCC5)CC4)c3c21 | enzyme activity, inhibitor | 10 µM | – | inhibition | 7%
